Published values collected from several papers.
Lines come from different studies, so protocols differ. ± marks the error that the study gave.
ALOX5: Polyunsaturated fatty acid 5-lipoxygenase (ALOX5, Homo sapiens, UniProt P09917)
Sequence of UniProt P09917 (whole entry, looked up): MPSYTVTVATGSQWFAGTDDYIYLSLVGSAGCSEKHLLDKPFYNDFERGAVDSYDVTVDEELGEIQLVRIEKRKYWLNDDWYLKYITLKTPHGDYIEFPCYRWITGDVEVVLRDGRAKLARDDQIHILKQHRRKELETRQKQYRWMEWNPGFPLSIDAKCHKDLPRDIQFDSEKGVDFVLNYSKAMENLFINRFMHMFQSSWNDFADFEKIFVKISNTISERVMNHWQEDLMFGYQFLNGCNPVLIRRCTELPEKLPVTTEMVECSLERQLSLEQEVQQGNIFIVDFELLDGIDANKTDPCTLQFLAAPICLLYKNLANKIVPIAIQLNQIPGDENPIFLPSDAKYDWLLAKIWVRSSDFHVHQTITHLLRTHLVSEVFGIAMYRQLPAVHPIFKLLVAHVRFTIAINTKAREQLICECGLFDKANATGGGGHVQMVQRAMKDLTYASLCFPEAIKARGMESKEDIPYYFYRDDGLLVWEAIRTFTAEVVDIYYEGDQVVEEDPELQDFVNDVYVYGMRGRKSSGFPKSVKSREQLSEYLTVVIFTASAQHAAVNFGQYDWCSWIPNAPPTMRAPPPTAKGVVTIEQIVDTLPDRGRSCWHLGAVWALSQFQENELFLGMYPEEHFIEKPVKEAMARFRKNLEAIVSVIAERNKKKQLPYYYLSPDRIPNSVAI
PIK3CA: Phosphatidylinositol 4,5-bisphosphate 3-kinase catalytic subunit alpha isoform (PIK3CA, Homo sapiens, UniProt P42336)
Sequence of UniProt P42336 (whole entry, looked up): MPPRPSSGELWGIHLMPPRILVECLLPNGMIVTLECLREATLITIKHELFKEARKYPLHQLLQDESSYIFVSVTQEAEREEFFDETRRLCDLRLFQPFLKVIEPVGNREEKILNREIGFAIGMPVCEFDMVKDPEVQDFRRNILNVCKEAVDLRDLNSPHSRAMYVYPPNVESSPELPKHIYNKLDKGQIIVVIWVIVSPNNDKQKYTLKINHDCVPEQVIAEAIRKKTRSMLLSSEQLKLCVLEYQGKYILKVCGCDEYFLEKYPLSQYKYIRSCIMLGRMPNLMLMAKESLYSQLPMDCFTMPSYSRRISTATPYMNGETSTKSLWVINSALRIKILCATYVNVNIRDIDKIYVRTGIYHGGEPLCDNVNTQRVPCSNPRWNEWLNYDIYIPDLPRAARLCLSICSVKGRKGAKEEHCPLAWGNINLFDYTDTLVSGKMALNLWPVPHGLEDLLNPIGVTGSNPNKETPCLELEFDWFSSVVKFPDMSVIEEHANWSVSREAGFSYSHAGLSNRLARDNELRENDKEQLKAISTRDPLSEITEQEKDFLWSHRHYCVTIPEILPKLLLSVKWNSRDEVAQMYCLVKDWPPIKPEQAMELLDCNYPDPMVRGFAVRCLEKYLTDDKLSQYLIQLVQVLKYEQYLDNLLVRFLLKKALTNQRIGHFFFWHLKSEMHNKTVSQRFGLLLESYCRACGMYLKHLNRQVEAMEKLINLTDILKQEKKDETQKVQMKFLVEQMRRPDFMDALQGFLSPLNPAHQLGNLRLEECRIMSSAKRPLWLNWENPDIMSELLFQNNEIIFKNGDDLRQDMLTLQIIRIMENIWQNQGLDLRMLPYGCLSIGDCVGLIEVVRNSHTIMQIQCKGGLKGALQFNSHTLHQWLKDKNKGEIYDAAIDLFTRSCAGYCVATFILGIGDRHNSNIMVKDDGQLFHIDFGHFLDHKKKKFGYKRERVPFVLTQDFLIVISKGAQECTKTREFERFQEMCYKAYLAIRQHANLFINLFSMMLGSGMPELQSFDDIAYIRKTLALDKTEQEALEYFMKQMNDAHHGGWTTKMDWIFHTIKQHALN
Sequence of UniProt P03372 (whole entry, looked up): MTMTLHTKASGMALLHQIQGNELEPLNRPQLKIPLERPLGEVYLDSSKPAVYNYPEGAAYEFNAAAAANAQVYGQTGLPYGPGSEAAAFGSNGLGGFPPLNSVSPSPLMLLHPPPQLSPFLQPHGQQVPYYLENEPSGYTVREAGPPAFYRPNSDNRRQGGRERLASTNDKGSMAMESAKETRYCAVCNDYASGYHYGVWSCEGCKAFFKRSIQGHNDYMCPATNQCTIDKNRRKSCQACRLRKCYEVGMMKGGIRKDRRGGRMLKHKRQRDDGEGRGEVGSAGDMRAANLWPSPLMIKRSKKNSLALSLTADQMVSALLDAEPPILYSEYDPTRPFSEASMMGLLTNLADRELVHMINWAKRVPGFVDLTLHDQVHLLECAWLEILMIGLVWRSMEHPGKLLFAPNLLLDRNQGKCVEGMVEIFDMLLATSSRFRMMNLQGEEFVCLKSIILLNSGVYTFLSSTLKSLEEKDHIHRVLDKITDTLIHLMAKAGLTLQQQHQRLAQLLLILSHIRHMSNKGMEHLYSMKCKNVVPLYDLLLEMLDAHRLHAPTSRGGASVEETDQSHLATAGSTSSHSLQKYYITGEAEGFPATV
Sequence of UniProt P04150 (whole entry, looked up): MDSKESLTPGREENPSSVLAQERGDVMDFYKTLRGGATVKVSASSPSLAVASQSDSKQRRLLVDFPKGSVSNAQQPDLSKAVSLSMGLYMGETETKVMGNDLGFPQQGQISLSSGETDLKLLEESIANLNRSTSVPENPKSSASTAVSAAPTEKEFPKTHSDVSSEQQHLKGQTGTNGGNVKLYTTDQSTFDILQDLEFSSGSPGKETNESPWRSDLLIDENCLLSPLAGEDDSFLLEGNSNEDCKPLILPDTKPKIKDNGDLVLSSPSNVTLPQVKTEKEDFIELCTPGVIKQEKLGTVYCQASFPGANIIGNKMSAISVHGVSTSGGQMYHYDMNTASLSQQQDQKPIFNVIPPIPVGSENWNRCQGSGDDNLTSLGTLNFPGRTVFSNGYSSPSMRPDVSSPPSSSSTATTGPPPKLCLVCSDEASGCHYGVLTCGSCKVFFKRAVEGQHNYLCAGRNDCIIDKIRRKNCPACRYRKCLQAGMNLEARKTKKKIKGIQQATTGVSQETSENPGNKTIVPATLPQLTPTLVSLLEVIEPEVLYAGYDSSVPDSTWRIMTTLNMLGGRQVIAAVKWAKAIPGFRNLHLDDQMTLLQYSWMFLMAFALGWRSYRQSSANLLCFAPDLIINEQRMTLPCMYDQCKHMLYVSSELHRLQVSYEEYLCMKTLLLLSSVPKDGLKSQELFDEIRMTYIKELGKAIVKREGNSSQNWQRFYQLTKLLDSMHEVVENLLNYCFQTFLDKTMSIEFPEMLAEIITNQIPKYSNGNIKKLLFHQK
Sequence of UniProt Q9Y2K7 (whole entry, looked up): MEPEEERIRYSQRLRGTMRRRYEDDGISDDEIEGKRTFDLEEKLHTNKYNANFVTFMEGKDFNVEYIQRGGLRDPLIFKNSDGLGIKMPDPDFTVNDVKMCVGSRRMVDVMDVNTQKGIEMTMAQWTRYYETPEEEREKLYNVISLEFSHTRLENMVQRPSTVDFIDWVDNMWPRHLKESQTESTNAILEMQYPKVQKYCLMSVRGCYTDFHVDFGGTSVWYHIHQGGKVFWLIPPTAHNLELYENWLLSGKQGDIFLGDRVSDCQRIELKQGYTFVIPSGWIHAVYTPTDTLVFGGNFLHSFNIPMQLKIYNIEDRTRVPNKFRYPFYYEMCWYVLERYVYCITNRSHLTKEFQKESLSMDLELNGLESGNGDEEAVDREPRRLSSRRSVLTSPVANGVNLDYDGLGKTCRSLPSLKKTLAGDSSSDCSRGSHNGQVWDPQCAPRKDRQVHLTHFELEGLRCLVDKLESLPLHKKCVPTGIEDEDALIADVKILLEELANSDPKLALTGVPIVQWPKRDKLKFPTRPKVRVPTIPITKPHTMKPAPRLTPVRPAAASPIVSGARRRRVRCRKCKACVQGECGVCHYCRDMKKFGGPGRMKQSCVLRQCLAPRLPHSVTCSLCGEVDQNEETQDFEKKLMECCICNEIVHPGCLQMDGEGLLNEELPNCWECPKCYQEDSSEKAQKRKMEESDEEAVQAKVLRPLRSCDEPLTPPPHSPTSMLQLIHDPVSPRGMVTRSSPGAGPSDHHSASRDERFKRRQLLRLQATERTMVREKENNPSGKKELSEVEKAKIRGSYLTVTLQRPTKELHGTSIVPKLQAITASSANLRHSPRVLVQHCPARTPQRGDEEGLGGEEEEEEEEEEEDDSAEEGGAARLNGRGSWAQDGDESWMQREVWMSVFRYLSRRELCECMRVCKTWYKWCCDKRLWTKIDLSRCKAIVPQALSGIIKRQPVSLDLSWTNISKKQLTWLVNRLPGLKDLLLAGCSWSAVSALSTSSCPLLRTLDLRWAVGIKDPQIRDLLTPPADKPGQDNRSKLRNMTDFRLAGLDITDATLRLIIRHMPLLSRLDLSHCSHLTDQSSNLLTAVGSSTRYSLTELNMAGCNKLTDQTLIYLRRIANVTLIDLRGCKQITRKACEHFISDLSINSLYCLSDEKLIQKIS
Sequence of UniProt P34914 (whole entry, looked up): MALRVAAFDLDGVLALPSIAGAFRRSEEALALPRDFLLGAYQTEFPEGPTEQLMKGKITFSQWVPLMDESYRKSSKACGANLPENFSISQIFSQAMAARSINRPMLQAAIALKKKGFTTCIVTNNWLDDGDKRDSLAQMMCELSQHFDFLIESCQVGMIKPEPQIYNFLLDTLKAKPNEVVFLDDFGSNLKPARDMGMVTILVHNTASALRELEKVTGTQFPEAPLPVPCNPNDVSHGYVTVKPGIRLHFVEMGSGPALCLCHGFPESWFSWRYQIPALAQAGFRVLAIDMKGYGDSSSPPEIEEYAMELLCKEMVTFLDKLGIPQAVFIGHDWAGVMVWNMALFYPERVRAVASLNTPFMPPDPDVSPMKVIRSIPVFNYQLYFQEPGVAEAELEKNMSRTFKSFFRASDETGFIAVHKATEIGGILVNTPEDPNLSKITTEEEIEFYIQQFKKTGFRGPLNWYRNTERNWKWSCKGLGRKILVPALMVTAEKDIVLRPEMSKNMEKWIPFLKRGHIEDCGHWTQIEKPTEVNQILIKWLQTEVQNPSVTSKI
Sequence of UniProt Q8K3Y3 (whole entry, looked up): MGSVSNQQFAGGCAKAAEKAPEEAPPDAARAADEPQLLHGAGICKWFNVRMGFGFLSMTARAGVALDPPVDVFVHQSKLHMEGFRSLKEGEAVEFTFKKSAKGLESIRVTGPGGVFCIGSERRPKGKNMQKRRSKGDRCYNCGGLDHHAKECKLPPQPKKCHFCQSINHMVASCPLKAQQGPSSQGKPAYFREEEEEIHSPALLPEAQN

Structure (SMILES)	target	test	system	conditions	IC50
Cc1cc(N2CC[C@@](C#N)(C3(C)CC3)C2=O)cc(C(=O)NCc2cc(F)cc(-c3cnn(C)c3)c2)n1	NR3C1 (Homo sapiens, UniProt P04150)	cell-free assay			> 10000 nM
COc1ccccc1CCN1CNc2c(c(=O)[nH]c(=O)n2-c2cccc(Cl)c2C)C1	P2X purinoceptor 7 (Ailuropoda melanoleuca, UniProt G1M6C4)	ion current, inhibitor, whole-cell patch clamp	HEK293 transfected	wild type, added: ATP	417 ± 77 nM
O=C1C[C@H](c2ccc(O)c(O)c2)c2c(cc(O)c3c2O[C@H](c2ccc(O)c(O)c2)[C@H](O)C3)O1	α-glucosidase (Saccharomyces cerevisiae)	inhibitor		added: pNPG	11.9 ± 1.41 µg/mL
CCNC(=O)[C@H]1O[C@@H](n2cnc3c(NCCCCCCCCNC(=O)CCCCCNC(=O)COc4ccc(/C=C/C5=[N+]6C(=Cc7ccc(-c8cccs8)n7[B-]6(F)F)C=C5)cc4)ncnc32)[C@H](O)[C@@H]1O	ADORA1 (Homo sapiens, UniProt P30542)	CRE reporter gene, agonist	CHO-A1	Gi-mediated inhibition, added: forskolin	47.9 nM
Cc1nn(-c2cccc(N)c2)c(=O)c2cnc(Nc3ccc(N4CCNCC4)cc3)nc12	Protein lin-28 homolog A (Mus musculus, UniProt Q8K3Y3)	RNA binding, inhibitor		added: pre-let-7d	7400 nM
CC(C)C[C@@H](NC(=O)[C@@H](Cc1ccccc1)NC(=O)[C@H]1CCCN1C(=O)[C@@H](CCC(N)=O)NC(=O)[C@H](NC(=O)[C@H]1CCCN1C(=O)[C@@H](CCCNC(=N)N)NC(=O)[C@@H](CO)NC(=O)[C@@H](CCC(N)=O)NC(=O)[C@@H](CC(=O)O)NC(=O)[C@H](N)[C@H](C)O)C(C)C)C(=O)N[C@H](CC(N)=O)C(=O)N[C@H](CC(C)C)C(=O)N[C@@H](C(=O)N[C@@H](C(=O)N1CCC[C@@H]1C(=O)N[C@H](CCCNC(=N)N)C(=O)N[C@H](CCCCN)C(=O)N1CCC[C@@H]1C(=O)N[C@H](CCCNC(=N)N)C(=O)N1CCC[C@@H]1C(=O)N1CCC[C@@H]1C(=O)N[C@H](CCCNC(=N)N)C(=O)N[C@H](CCCNC(=N)N)C(=O)N[C@H](CCCNC(=N)N)C(=O)N[C@H](CCC(N)=O)C(=O)N[C@H](CCCNC(=N)N)C(=O)N[C@H](CCCNC(=N)N)C(=O)N[C@H](CCCCN)C(=O)N[C@H](CCCCN)C(=O)N[C@H](CCCNC(=N)N)C(=O)NCC(N)=O)[C@H](C)O)[C@H](C)O	MAPK10 (Homo sapiens, UniProt P53779)	enzyme activity, inhibitor, radiometric		pH 7.5	76300 nM
CC(=O)C1=C(C)NC(=O)NC1c1cccc(Br)c1 (centres unmarked)	AMY2 (Sus scrofa, UniProt P00690)	enzyme activity, inhibitor			97900 nM
COc1ccc(C(=O)CCc2cc(C(CCc3ccc(O)cc3OC)c3ccc(O)cc3)c(O)cc2OC)cc1 (racemic)	ALOX5	enzyme activity, inhibitor			1100 nM
CC12CC3CC(C)(C1)CC(NC(=O)NC1CCC(Oc4ccc(C(=O)O)cc4)CC1)(C3)C2 (centres unmarked)	Ephx2 (Mus musculus, UniProt P34914)	enzyme activity, inhibitor, fluorescence			3.8 nM
O=C1NC(=S)S/C1=C\c1ccc(O)c([N+](=O)[O-])c1	PIK3CA	enzyme activity, inhibitor, radiometric			11000 nM
C=CC(=O)N1CCc2ccc(-n3c(=O)ccc4cnc5ccc(-c6cnn(C)c6)cc5c43)cc21	PTK6 (Homo sapiens, UniProt Q13882)	enzyme activity, inhibitor			> 10000 nM
CC[C@H](C)[C@@H]1NC(=O)[C@H](C)NC(=O)CNC(=O)c2cc3cc(c2)C(=O)NC[C@@H](C(=O)NCCC(=O)NCCC(=O)N[C@@H](CCCCN)C(N)=O)NC(=O)[C@H](CCCNC(=N)N)NC(=O)[C@@H](CCCNC(=N)N)NC(=O)[C@H](CCCNC(=N)N)NC(=O)[C@H](Cc2ccc4ccccc4c2)NC(=O)[C@H](Cc2ccccc2)NC(=O)[C@H](CNC3=O)NC(=O)[C@H](C)NC(=O)[C@H](Cc2ccc(O)cc2)NC1=O	NF-kappa-B essential modulator, with IKK-beta (IKBKG, Homo sapiens, UniProt Q9Y6K9)	inhibitor, HTRF			3000 ± 300 nM
COc1ccc2c(c1)c1c(n2CO)CN2CCc3cc(OCc4cccc(F)c4)c(OC)cc3C2C1 (centres unmarked)	HTR1B (Homo sapiens, UniProt P28222)	ligand displacement in cells, radioligand			15700 nM
O=C1NC(=S)S/C1=C\c1cccc(O)c1O	PIK3CA	enzyme activity, inhibitor, radiometric			7300 nM
O=C(NCc1cc(C2CC2)on1)c1cccc(-c2ccc3c(c2)CCO3)c1	Acetyl-CoA synthetase (Cryptococcus neoformans, UniProt J9VFT1)				> 50000 nM
COc1ccccc1C1Sc2ccccc2NC2=C1C(=O)c1ccccc12 (racemic)	MT-CYB, bc1 complex (Plasmodium falciparum, UniProt Q02768)	enzyme activity, inhibitor	purified mitochondrial fractions		1340 ± 366 nM
CN(C(=O)c1ccn2ncc(-c3ccc(C(N)=O)cc3)c2c1)c1ccc(C#N)cn1	Cyclin-dependent kinase 4, with cyclin D1 (CDK4, Homo sapiens, UniProt P11802)	inhibitor			> 10000 nM
O=C(Nc1ccc(Cl)cc1)c1cccc(S(=O)(=O)NC2CC2)c1	Ectonucleoside triphosphate diphosphohydrolase 8 (Homo sapiens, UniProt Q5MY95)	enzyme activity, inhibitor, absorbance			1780 nM
O=S(=O)(Oc1ccc2ccccc2c1)C1CC2OC1C(c1ccc(O)cc1)=C2c1ccc(O)cc1 (racemic)	ESR2 (Homo sapiens, UniProt Q92731)	reporter gene, antagonist, ERE luciferase reporter	HepG2 transfected with ERβ	added: estradiol 1 µM	> 10000 nM
CN(C)c1ccc(/C=C/c2cc[n+](Cc3ccc(F)cc3)cc2)cc1	KDM2A (Homo sapiens, UniProt Q9Y2K7)	ligand displacement, FP			3170 nM
COc1cc(O)ccc1CC[C@@H](c1ccc(O)cc1)c1cc2c(c(C)c1O)O[C@@H](c1ccc(O)cc1)CC2	ALOX5	enzyme activity, inhibitor			700 nM
CNC(=O)c1ccccc1Oc1nc(Nc2cc(OC)c(OC)c(OC)c2)ncc1Br	NUAK1 (Homo sapiens, UniProt O60285)	enzyme activity, inhibitor			87 nM
Cc1cc(N2CCC(CO)(C3CC3)C2=O)cc(C(=O)NCc2cc(F)cc(-c3cnn(C)c3)c2)n1 (centres unmarked)	EPRS1 (Homo sapiens, UniProt P07814)	enzyme activity, inhibitor, absorbance			1400 nM
O=c1c2ccccc2on1-c1ccccc1	HDAC4 (Homo sapiens, UniProt P56524)	enzyme activity, inhibitor			> 10000 nM
O=C(/C=C(\O)C(F)(F)C(F)(F)F)c1cccnc1	Formate-nitrite transporter (Plasmodium knowlesi, UniProt A0A679KXN5)	L-lactate transport, inhibitor	yeast	pH 6.8, added: 14C-L-lactate 1 mM	870 ± 60 nM
CCN1C(=O)/C(=C\c2ccc(O)cc2)SC1=S	Estrogen receptor (ESR1, Homo sapiens, UniProt P03372)	coactivator recruitment, antagonist			1190 nM
N=C(N)NCCCC(N)C(=O)NCC(=O)NC(CCCCNC(=N)NCCSCC1OC(n2cnc3c(N)ncnc32)C(O)C1O)C(N)=O (centres unmarked)	EHMT2 (Homo sapiens, UniProt Q96KQ7)	enzyme activity, inhibitor, fluorescence			~10000 nM
CCC(=O)NC1CC=C(c2cc3c(Nc4ccc5scnc5c4)ncnc3s2)CC1 (centres unmarked)	RIPK2 (Homo sapiens, UniProt O43353)	enzyme activity, inhibitor			14 nM
CCOc1cncc(-c2ccc(NC(=O)C(CC)c3ccnc(NS(=O)(=O)C4CC4)n3)nc2)n1 (centres unmarked)	CTP synthase 1 (Homo sapiens, UniProt P17812, I250T)	cell growth	CTPS-null Jurkat expressing CTP synthase 1	3 d	1430 nM

Some of these lines once more:
Structure (SMILES)	target	test	system	conditions	IC50
Cc1nn(-c2cccc(N)c2)c(=O)c2cnc(Nc3ccc(N4CCNCC4)cc3)nc12	Protein lin-28 homolog A (Mus musculus, UniProt Q8K3Y3)	RNA binding, inhibitor		added: pre-let-7d	7400 nM
CCOc1cncc(-c2ccc(NC(=O)C(CC)c3ccnc(NS(=O)(=O)C4CC4)n3)nc2)n1 (centres unmarked)	CTP synthase 1 (Homo sapiens, UniProt P17812, I250T)	cell growth	CTPS-null Jurkat expressing CTP synthase 1	3 d	1430 nM
CN(C)c1ccc(/C=C/c2cc[n+](Cc3ccc(F)cc3)cc2)cc1	KDM2A (Homo sapiens, UniProt Q9Y2K7)	ligand displacement, FP			3170 nM
C=CC(=O)N1CCc2ccc(-n3c(=O)ccc4cnc5ccc(-c6cnn(C)c6)cc5c43)cc21	PTK6 (Homo sapiens, UniProt Q13882)	enzyme activity, inhibitor			> 10000 nM
O=C1C[C@H](c2ccc(O)c(O)c2)c2c(cc(O)c3c2O[C@H](c2ccc(O)c(O)c2)[C@H](O)C3)O1	α-glucosidase (Saccharomyces cerevisiae)	inhibitor		added: pNPG	11.9 ± 1.41 µg/mL
